Measured values gathered from unrelated publications.
Compare with care: the assays were run in different laboratories. “And” joins repeats or separate records; there may be more than shown. ± marks the error that the study gave.
Sequence of UniProt Q9NZP8 (whole entry, looked up): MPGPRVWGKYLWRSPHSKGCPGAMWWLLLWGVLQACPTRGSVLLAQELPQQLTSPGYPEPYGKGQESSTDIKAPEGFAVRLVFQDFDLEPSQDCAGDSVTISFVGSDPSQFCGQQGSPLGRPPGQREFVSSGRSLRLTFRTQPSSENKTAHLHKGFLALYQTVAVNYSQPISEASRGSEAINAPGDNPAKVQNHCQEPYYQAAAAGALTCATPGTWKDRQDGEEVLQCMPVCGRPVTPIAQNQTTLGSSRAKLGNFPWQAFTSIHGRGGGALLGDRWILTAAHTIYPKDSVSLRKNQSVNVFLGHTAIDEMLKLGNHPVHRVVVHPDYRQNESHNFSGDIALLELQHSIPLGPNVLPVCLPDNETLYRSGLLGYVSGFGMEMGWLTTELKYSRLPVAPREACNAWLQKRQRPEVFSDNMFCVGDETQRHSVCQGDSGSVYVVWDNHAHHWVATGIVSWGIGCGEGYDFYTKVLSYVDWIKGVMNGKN

| Structure (SMILES) | target or system | test | system | conditions | scale | quantity | value |
| --- | --- | --- | --- | --- | --- | --- | --- |
| C[C@@H](O)[C@@H](CO)NC(=O)[C@@H](CCCNC(=N)N)NC(=O)[C@@H]1CCCN1C(=O)[C@@H]1CSSC[C@H](NC(=O)[C@H](Cc2ccccc2)NC(=O)CN2CCN(CC(=O)O)CCN(CC(=O)O)CCN(CC(=O)O)CC2)C(=O)N[C@@H](Cc2ccc(O)cc2)C(=O)N[C@@H](Cc2ccccc2)C(=O)N[C@@H](CCC(N)=O)C(=O)N[C@@H](CC(N)=O)C(=O)N1 [gallium-68 labelled] |  |  | Wistar rat, healthy, Parotid gland | intravenous, 8 MBq, 120 min |  | tissue uptake | 0.08 %ID/g |
| NCCCC[C@@H]1NC(=O)[C@@H](Cc2c[nH]c3ccccc23)NC(=O)[C@H](c2ccccc2)NC(=O)[C@@H]2C[C@@H](OC(=O)NCCN)CN2C(=O)[C@H](Cc2ccccc2)NC(=O)[C@H](Cc2ccc(OCc3ccccc3)cc2)NC1=O |  |  | healthy volunteers, female | 600 µg twice daily, 2.0 h, post hoc |  | placebo-corrected QTcF change | 10.8 ms |
| CCc1ccc(CC/C=C/c2ccc3c(c2)C(=O)CC3)cc1 |  |  | Sprague-Dawley rat, female, blood | oral, 450 mg/kg/day, 14 days |  | platelet distribution width | 49.5% |
| CC(C)[C@H](NC(=O)[C@H](CO)NC(=O)CNC(=O)[C@H](CO)NC(=O)[C@H](CCCNC(=N)N)NC(=O)[C@H](CCC(N)=O)NC(=O)[C@@H]1CCCN1C(=O)[C@@H](NC(=O)[C@H](CCCNC(=N)N)NC(=O)[C@H](CCCNC(=N)N)NC(=O)[C@H](CCCNC(=N)N)NC(=O)[C@H](CCC(N)=O)NC(=O)[C@H](CCCNC(=N)N)NC(=O)[C@H](CCCNC(=N)N)NC(=O)[C@H](CCCCN)NC(=O)[C@H](CCCCN)NC(=O)[C@H](CCCNC(=N)N)NC(=O)CNC(=O)[C@@H](N)Cc1ccc(O)cc1)[C@@H](C)O)C(=O)N[C@@H](CO)C(=O)N[C@@H](CC(N)=O)C(=O)N[C@@H](Cc1ccc(O)cc1)C(=O)N[C@@H](CCCNC(=N)N)C(=O)N[C@@H](CO)C(=O)N[C@@H](CS)C(=O)N[C@@H](CCC(N)=O)C(=O)N[C@@H](CCCNC(=N)N)C(=O)O |  |  | primary hepatocytes from HFD-fed mice, mouse, high-fat diet-fed | concentration not given |  | suppression of glucose production | > 55% |
| CO[C@H]1C[C@@H]2CC[C@@H](C)[C@@](O)(O2)C(=O)C(=O)N2CCCC[C@H]2C(=O)O[C@H]([C@H](C)C[C@@H]2CC[C@@H](OC(=O)NCCOCCOCCOCCOCCOCCOCCOCCOCCC(=O)N3CCc4cc(Cn5nc(-c6ccc7oc(N)nc7c6)c6c(N)ncnc65)ccc4C3)[C@H](OC)C2)C[C@@H](O)[C@H](C)/C=C(\C)[C@@H](O)[C@@H](OC)C(=O)[C@H](C)C[C@H](C)/C=C/C=C/C=C/1C |  | phase 1 dose escalation | advanced solid tumour patients | intravenous, 8 mg weekly, any grade |  | any TRAE incidence | 87.5% |
| C[C@@H]1NC(=O)[C@H](CCCCNC(=O)CO/N=C/C(=O)NCCCC[C@@H]2NC(=O)[C@@H](Cc3ccccc3)NC(=O)[C@H](CC(=O)O)NC(=O)CNC(=O)[C@H](CCCNC(=N)N)NC2=O)NC(=O)CNC(=O)[C@@H]2CCCN2C(=O)[C@H](CCCCNC(=O)CO/N=C/C(=O)NCCCC[C@@H]2NC(=O)[C@@H](Cc3ccccc3)NC(=O)[C@H](CC(=O)O)NC(=O)CNC(=O)[C@H](CCCNC(=N)N)NC2=O)NC(=O)[C@H](CCCCNC(=O)CN2CCCNCCNCCCNCC2)NC(=O)[C@H](CCCCNC(=O)CO/N=C/C(=O)NCCCC[C@@H]2NC(=O)[C@@H](Cc3ccccc3)NC(=O)[C@H](CC(=O)O)NC(=O)CNC(=O)[C@H](CCCNC(=N)N)NC2=O)NC(=O)CNC(=O)[C@@H]2CCCN2C(=O)[C@H](CCCCNC(=O)CO/N=C/C(=O)NCCCC[C@@H]2NC(=O)[C@@H](Cc3ccccc3)NC(=O)[C@H](CC(=O)O)NC(=O)CNC(=O)[C@H](CCCNC(=N)N)NC2=O)NC1=O [copper-64 labelled] |  |  | normal mice, spleen | intravenous, 0.74 MBq, 24 h post-injection |  | tissue uptake | 2.94 ± 0.31 %ID/g |
| CC(=O)c1c(C)c2cnc(Nc3ccc(C4CCN(CCS(C)(=O)=O)CC4)cn3)nc2n(C2CCCC2)c1=O |  |  | human patients, plasma | oral, 100 mg twice daily, day 21 multiple doses |  | Cmax | 317 ng/mL |
| Cc1cccc(Cn2nc(C3CC3)c3c(NC(=O)c4cnc5cc(OCCN6CCN(C)CC6)ccn45)cccc32)n1 |  | CTCAE v4.03, measured: blood CPK increased | patients with advanced solid tumours | oral, all dose levels, added: pembrolizumab 2 mg/kg IV every 3 weeks |  | all-cause adverse events | 42.1% |
| CCN1[C@@H](C(=O)NC23CCC(C(=O)O)(CC2)CC3)[C@H](c2cccc(Cl)c2F)[C@]2(C(=O)Nc3cc(Cl)ccc32)C12CCCCC2 |  |  | patients with advanced solid tumours | oral, 100 mg |  | grade ≥3 Neutropenia incidence | 9.1% |
| CC[C@H](C)[C@H](NC(=O)[C@H](Cc1ccccc1)NC(=O)[C@H](CCC(=O)O)NC(=O)[C@H](CCCNC(=N)N)NC(=O)[C@H](C)NC(=O)[C@H](C)NC(=O)[C@H](CCC(N)=O)NC(=O)[C@H](CCC(=O)O)NC(=O)[C@H](CCC(=O)O)NC(=O)[C@H](CC(C)C)NC(=O)[C@H](Cc1ccc(O)cc1)NC(=O)[C@H](CO)NC(=O)[C@H](CO)NC(=O)[C@@H](NC(=O)[C@H](CC(=O)O)NC(=O)[C@H](CO)NC(=O)[C@@H](NC(=O)[C@H](Cc1ccccc1)NC(=O)[C@@H](NC(=O)CNC(=O)[C@H](CCC(=O)O)NC(=O)[C@H](C)NC(=O)CCc1c[nH]cn1)[C@@H](C)O)[C@@H](C)O)C(C)C)C(=O)N[C@@H](C)C(=O)N[C@@H](Cc1c[nH]c2ccccc12)C(=O)N[C@@H](CC(C)C)C(=O)N[C@H](C(=O)N[C@@H](CCCNC(=N)N)C(=O)NCC(=O)N[C@@H](CCCNC(=N)N)C(=O)N[C@@H](CCCCNC(=O)COCCOCCNC(=O)COCCOCCNC(=O)CC[C@H](NC(=O)CCCCCCCCCCCCCCCCC(=O)O)C(=O)O)C(=O)NCC(=O)NCC(=O)N[C@@H](CO)C(=O)N[C@@H](CCCCNc1c(NCCCCCN(O)C(=O)CCC(=O)NCCCCCN(O)C(=O)CCC(=O)NCCCCCN(O)C(C)=O)c(=O)c1=O)C(=O)O)C(C)C [zirconium-89 labelled] |  | ex vivo gamma counting | rat, brain | subcutaneous, 3 nmol/kg, 4 h, added: [89Zr]-labelled peptide |  | tissue uptake | 0.03 %ID/g |
| CC[C@H](C)[C@@H]1NC(=O)[C@@H]2CCCN2C(=O)[C@H](CC(C)C)NC(=O)[C@H](CC(C)C)NC(=O)CNC(=O)[C@@H](NC(=O)[C@@H](NC(=O)[C@H](CC(=O)O)NC(=O)CNC(=O)[C@@H](NC(=O)[C@H](C)NC(=O)CNC(=O)[C@H](CCCCN)NC(=O)[C@H](CC(C)C)NC(=O)[C@H](CC(C)C)NC(=O)[C@H](CCCCN)NC(=O)CNC(=O)[C@@H](NC(=O)[C@@H](N)CC(C)C)C(C)C)C(C)C)C(C)C)CSSC[C@@H](C(=O)O)NC1=O |  | RNA-seq, measured: Pirb mRNA | mouse traumatic brain injury, frontal cortex and hippocampus | dose not given | reference: TBI plus compound vs TBI | log2 fold change | -2.89 |
| COc1ccc2nc3cc(Cl)ccc3c(Nc3cc(CN4CCCC4)c(O)c(CN4CCCC4)c3)c2n1 |  |  | mouse, blood | intraperitoneal, 57 mg/kg |  | blood pH | 7.59 |
| COc1cc(Nc2ncc(F)c(Nc3ccc4c(n3)NC(=O)C(C)(C)O4)n2)cc(OC)c1OC | imidazoline I2 receptor |  | peripheral |  |  | IC50 | > 10 µM |
| O=C(c1ccc(Cl)cc1)N1CCN2C(=O)N(OC(=O)N3CCOc4ccccc43)C(=O)C2C1 (stereo not shown) | Complement C1r subcomponent-like protein (C1RL, Homo sapiens, UniProt Q9NZP8) | MS-based ABPP | SW-620 conditioned medium | 10 µM, 1 h, 37 °C | reference: compound over DMSO, lower = more inhibition | peptide ratio | 1.03 and 1.12 and 1.05 |
| C[C@H]1C[C@@H](N2C(=N)N[C@](C)(c3cccc(NC(=O)c4cccc(C#N)c4)c3Cl)CC2=O)CCO1 |  |  | rat | 1000 mg/kg, every other day |  | phosphorus change | -14% |
| CC(C)CC(=O)OC[C@H]1O[C@@](C#N)(c2ccc3c(N)ncnn23)[C@H](O)[C@@H]1O |  | plasma protein binding | mouse plasma | 0.9 µM, time not given |  | recovery | 91.4% |
| COc1ncccc1-c1cnn2ccc(N3CCN(C(=O)OC(C)C)CC3)nc12 |  |  | mouse SNL model, plasma | oral, 30 mg/kg, 30 min |  | concentration | 8.2 µM |
| O=C1c2c(O)c(=O)ccn2N([C@@H]2c3ccccc3SCc3c2ccc(F)c3F)[C@@H]2COCCN12 |  |  | BALB/c mice, plasma | oral, 5 mg/kg baloxavir marboxil, 8 h |  | plasma concentration | 11.9 ng/mL |
| CN1CC[C@@H](c2c(O)cc(O)c3c(=O)cc(-c4ccc(C(F)(F)F)cc4Cl)oc23)[C@@H]1CO |  | measured: Anorexia | B-cell malignancies | oral, 200 mg, intermittent dosing |  | patients with adverse event | 0% |

Excerpt of the above:
| Structure (SMILES) | target or system | test | system | conditions | scale | quantity | value |
| --- | --- | --- | --- | --- | --- | --- | --- |
| CCN1[C@@H](C(=O)NC23CCC(C(=O)O)(CC2)CC3)[C@H](c2cccc(Cl)c2F)[C@]2(C(=O)Nc3cc(Cl)ccc32)C12CCCCC2 |  |  | patients with advanced solid tumours | oral, 100 mg |  | grade ≥3 Neutropenia incidence | 9.1% |
